Assay results of several laboratories.
Protocols differ between the studies behind these lines. Values joined by “and” are separate records of one study, mostly repeats; a detail may differ. ± marks the error that the study gave. ≈ marks a conversion by molar mass, not a printed value.
Chain of UniProt P18054 (whole entry, looked up): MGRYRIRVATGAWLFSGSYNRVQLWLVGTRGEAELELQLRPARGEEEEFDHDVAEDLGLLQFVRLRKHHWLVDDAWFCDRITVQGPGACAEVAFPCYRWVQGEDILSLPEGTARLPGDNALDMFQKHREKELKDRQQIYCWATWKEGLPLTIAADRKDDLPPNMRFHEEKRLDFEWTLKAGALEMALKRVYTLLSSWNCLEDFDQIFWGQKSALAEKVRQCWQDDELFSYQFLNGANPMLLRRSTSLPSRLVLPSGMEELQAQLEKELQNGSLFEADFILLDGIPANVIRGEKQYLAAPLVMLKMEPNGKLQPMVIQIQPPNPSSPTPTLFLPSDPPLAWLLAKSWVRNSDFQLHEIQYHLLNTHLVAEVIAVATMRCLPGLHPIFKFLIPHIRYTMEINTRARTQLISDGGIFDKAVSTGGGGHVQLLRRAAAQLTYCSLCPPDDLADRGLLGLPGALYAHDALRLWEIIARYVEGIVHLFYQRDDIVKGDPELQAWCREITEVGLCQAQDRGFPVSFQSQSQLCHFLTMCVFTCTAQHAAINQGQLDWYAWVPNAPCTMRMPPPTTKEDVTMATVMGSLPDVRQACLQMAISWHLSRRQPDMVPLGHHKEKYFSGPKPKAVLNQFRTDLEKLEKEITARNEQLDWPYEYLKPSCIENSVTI
Chain of UniProt P08631 (whole entry, looked up): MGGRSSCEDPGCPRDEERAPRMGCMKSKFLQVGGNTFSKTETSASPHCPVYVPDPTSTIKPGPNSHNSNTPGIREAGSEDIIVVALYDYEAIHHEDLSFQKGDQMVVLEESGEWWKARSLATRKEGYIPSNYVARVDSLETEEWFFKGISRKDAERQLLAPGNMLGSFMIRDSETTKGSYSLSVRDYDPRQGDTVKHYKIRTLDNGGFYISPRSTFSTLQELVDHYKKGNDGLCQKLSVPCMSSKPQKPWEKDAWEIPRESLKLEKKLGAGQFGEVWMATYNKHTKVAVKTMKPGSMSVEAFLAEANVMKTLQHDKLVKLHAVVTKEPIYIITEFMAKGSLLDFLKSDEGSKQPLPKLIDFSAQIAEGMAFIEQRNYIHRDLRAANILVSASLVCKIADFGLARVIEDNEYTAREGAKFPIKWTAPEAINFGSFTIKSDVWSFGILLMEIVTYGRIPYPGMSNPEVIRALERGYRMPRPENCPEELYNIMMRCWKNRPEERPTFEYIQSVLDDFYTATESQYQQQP
Chain of UniProt P42679 (whole entry, looked up): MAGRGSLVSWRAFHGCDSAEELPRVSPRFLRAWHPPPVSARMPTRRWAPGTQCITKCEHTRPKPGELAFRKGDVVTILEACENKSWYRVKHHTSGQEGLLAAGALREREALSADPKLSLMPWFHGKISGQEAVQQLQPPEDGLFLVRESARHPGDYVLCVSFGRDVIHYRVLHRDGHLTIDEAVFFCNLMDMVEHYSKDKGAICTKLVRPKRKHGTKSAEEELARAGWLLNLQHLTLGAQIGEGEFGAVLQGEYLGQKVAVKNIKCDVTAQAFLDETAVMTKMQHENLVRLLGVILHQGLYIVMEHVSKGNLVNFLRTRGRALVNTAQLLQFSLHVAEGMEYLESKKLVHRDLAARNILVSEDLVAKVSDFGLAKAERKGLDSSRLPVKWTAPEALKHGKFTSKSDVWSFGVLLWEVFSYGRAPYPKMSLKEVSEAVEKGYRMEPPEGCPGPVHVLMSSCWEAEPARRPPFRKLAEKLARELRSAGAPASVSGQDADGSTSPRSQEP

SMILES	target or system	assay	system	conditions	scale	quantity	value
COc1ccc(Cn2c3cc(=O)n(Cc4cccc(Cl)n4)c(C)c3c(=O)n2-c2ccccn2)cc1	human respiratory syncytial virus		recombinant reporter virus	concentration not given, scale 0 to 100, added: adenosine 1.2 µM		normalized viral replication	0
O[C@]12C=C(c3nccc4c3[nH]c3ccccc34)[C@@H]3CCN(CCCC/C=C\CC1)C[C@@]31C[C@@H]3/C=C\CCCCN3[C@H]12	Cryptococcus neoformans		ATCC 90113	5% bovine calf serum		IC50	6.61 µg/mL (≈ 12 µM)
Cc1cc(C(=O)Nc2nc3cccc(C)c3n2[C@H]2CCCCN(C(=O)/C=C/CN(C)C)C2)ccn1	Trypanosoma brucei brucei		2T1 CLK1 C215S overexpressing	0.00114 µM, 72 h		survival	80.8% and 106% and 94.8% and 102% and 100%
C[C@@H](O)[C@H](NC(=O)[C@H](CS)NC(=O)[C@H](Cc1ccccc1)NC(=O)[C@H](CS)NC(=O)[C@H](CCCNC(=N)N)NC(=O)[C@H](CCCNC(=N)N)NC(=O)[C@H](CCCNC(=N)N)NC(=O)[C@H](Cc1ccccc1)NC(=O)CNC(=O)[C@H](CCCNC(=N)N)NC(=O)[C@H](CS)NC(=O)[C@H](CCCNC(=N)N)NC(=O)CNC(=O)CN)C(=O)N[C@H](C(=O)N[C@@H](Cc1c[nH]cn1)C(=O)N[C@@H](CS)C(=O)O)[C@@H](C)O	Botrytis cinerea	grey mould lesion size	detached rose petals	48 h post-inoculation		lowest effective concentration	3 µM
CCc1nn(C)c2nc(-c3ccc(C(=O)O)cc3)nc(NCc3ccccc3)c12	Cryptosporidium parvum		HCT-8	EC90, 48 h	reference: DMSO control	parasite number	57% and 68.9% and 44.8% and 55.4%
CC(O)CN.O=C(O)C(Cl)Cl	Chenopodium album	herbicidal activity		15 mg/mL, 21 days, pre-emergence greenhouse		inhibition	0%
CN(C)[C@H]1C[C@@]23CC[C@@]4(O2)C(=CC[C@]2(C)[C@@H](c5ccc6ccncc6c5)CC[C@H]24)C=C3[C@@H](O)[C@@H]1O	Megakaryocyte-associated tyrosine-protein kinase (MATK, Homo sapiens, UniProt P42679)	ATP probe labelling, inhibitor, KiNativ profiling		0.1 µM		inhibition	2.5%
CC(C)[C@H]1NC(=O)C[C@H]2/C=C/CCSSC[C@@H](NC1=O)C(=O)N[C@H](Cc1cccc3ccccc13)C(=O)NCC(=O)O2	Tyrosine-protein kinase HCK (HCK, Homo sapiens, UniProt P08631)	enzyme activity, inhibitor		10 µM		inhibition	-3.6%
c1ccc(CCNC2CCCc3c2[nH]c2ccc(C4CCCCC4)cc32)cc1 (stereo not shown)	Streptococcus pneumoniae			concentration not given, 10% fetal bovine serum	reference: without serum	MIC fold change	4
O=C1NC2(CC2)COc2ncc(F)cc2[C@H]2COCCN2c2ccn3ncc1c3n2			Sprague-Dawley rat, female, uterus	oral, 5 mg/kg/day, 4 weeks, end of treatment		organ-to-brain weight ratio	24.6 ± 5.52%
CC(C)[C@H]1NC(=O)[C@H](Cc2ccccc2)NC(=O)[C@@H](C(C)C)NC(=O)[C@@H](C)NC(=O)[C@H](CO)NC(=O)[C@@H](Cc2c(-c3ccc(-c4ccc5ccccc5c4)cc3)[nH]c3ccccc23)NC(=O)CNC1=O	Mycobacterium marinum					MIC90	> 100 µM
Fc1cccc(COc2ccc(Nc3ncnc4ccc(-c5ccc(N6CCOCC6)cc5)cc34)cc2Cl)c1	Trypanosoma cruzi	intracellular amastigote growth, β-galactosidase CPRG	3T3, Tulahuen, β-galactosidase-expressing	10 µM, 96 h		inhibition	10%
COc1ccccc1-c1n[nH]c2nc(NC3CCN(C(=O)Cc4ccc(F)cc4F)CC3)ncc12		bead binding, competition bead pull-down, item: LINJ.23.0310	Leishmania donovani axenic amastigote extract	10 µM	reference: vehicle	relative abundance	0.96
CS(C)(=O)=Nc1ccc(-c2ccc(-c3nc4cc(O[C@@H]5CO[C@H]6[C@@H]5OC[C@H]6O)[nH]c4cc3F)cc2)cc1	Polyunsaturated fatty acid lipoxygenase ALOX12 (ALOX12, Homo sapiens, UniProt P18054)	enzyme activity, inhibitor		10 µM		inhibition	-29%
COc1ccc(C2=[N+]([O-])c3ccccc3N3CCN=C23)cc1	Clostridioides difficile	microbial growth				MIC90	0.5 µg/mL
CC(C)[C@@H](N)C(=O)N[C@H](CO)C(=O)N[C@H](Cc1c[nH]c2ccccc12)C(=O)N[C@@H](CO)C(=O)N[C@H](C)C(=O)N[C@@H](C(=O)N[C@@H](Cc1ccccc1)C(=O)O)C(C)C	Mycobacterium marinum					MIC90	> 100 µM
